Published values pooled from the literature.
Each numbered part is a random draw from the data of one study; scales do not carry over between parts.

Series 1
Molecule: PhoQ, residues 284 288 289 292 302 303 SLSVQF
Technique: Sort-seq
Item: YFP reporter
Medium: E. coli
Setting: PhoQ-PhoP variant library
With: 10 µM Mg2+
Reference: high Mg2+ state
Reading: higher = stronger signaling
For PhoP, residues 12 14 15 18 19 NFFVT (Escherichia coli, UniProt P23836): fold induction read 16.3.
For PhoP, residues 12 14 15 18 19 TPWTL (Escherichia coli, UniProt P23836): fold induction read 15.
It gave 7.4 for fold induction (PhoP, residues 12 14 15 18 19 LHHYF (Escherichia coli, UniProt P23836)).

Series 2
Target: RING finger protein unkempt homolog, zinc fingers 1-6, GST-SBP tag (UNK, Homo sapiens, UniProt Q9C0B0, residues 30-357)
Technique: RNA Bind-n-Seq
Form: RNA
Medium: in vitro
Concentration: not given
Setting: RNA with constant flanks, human and mouse sites, ends assumed
Reference: input RNA pool
Reading: higher = stronger binding
Residues (chain): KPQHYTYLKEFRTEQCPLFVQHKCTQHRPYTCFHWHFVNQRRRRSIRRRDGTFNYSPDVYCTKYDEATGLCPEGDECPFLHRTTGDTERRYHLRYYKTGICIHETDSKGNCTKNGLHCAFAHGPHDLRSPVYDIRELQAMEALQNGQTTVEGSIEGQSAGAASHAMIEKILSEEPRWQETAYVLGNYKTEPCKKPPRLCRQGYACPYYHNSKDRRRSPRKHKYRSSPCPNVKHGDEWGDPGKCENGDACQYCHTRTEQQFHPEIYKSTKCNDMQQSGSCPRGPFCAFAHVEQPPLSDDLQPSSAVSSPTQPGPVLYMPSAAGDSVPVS
With `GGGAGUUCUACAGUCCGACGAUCAAUUUGGCGAAAAUUCUUAAGAGGCAUCCAGGUUUAAGAAACAUUCUGCCUAUAACUACUGCCAAAGUGCCUAUUGUAAAAUUUGAACACAGGAGAAGUGGACUAGAAGGUGAUAUCAGUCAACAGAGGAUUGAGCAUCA` the bound/input enrichment was 0.386 ratio.
The bound/input enrichment of `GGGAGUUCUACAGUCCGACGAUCUUCAUGGAAAUGAGUGUUGAGCAGGAAAUUCUGGUGACUGGUAUCAAGGUUGUCGAUCUGCUAGCUCCCUAUGCCAAGGGUGGCAAAAUUGGGCUUUUUGGUGGUGCUGGAGUUGGCAAGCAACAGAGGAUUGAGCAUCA` is reported as 0.386 ratio.
For `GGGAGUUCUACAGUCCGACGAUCAGAACAAACAAAGGGCUGCAACUACGGCAUGGCAAUGACCAACGCGUGUUCCGUUUAGAGUUUGUCUCAAACCAAGAAUUCACCGAAAGUGAGUUUAUGAAGUGGAAAGAAGCGAUGUUCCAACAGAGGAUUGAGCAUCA`, the bound/input enrichment was 0.157 ratio.
For `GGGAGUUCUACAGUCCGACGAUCAAGUCAAUGCAGUCCCACUUACUCAAGCUGCAGCUGAAAGGCUAUCCCAGUACGUGUUGGUAGUUCCUGAGAGAGUUAUAGCUGGUGUUGCCUUGUGGUCUACCCCUUGUUUCAGGCCUCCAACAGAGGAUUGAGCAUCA`, the bound/input enrichment was 0.104 ratio.
`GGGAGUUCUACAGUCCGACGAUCGCACCCAGGUCCUAUAGAAUAGCACCCAGGCCAUAUAGGUUAGCACCUAGACCCCUGAUGUUAGCAUCUAGACGUUCUAUGAUGAUGUCCUAUGCUGCAGAACGUUCCAUGAUGUCAUCUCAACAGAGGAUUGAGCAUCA` gave a bound/input enrichment of 0.395 ratio.
The bound/input enrichment of `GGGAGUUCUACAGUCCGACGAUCCUGAGAAUCUAUCUUGAUGAAAGGAGAGAUGUCUUGGAUGACCUUGUAACAUUGCAUAAUUUUAGAAAUCAGUUCUUGCCAAAUGCACUGAGAGAAUUUUUUCGUCAUAUCCAUGCCCCUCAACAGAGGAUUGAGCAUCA` is reported as 0.348 ratio.
With `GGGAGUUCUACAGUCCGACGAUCCAGCCUAUUGCUGUGGCCUCCCUGUCUACAAACACAGAGCAAGACCGAGUCUCUCGAGGAACAAGUACAGUCAUGCCAUCAGCUUCUCUACUCCCACCACCAGAACCAAUUGAGGAAGCUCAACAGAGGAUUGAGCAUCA` the bound/input enrichment was 0.456 ratio.
`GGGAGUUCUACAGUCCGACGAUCGUUCGGCUCUGGGAUCAUGCCACAAUGACAGAAGUGAAAUCUCUGAAUUUUAAUAUGUCUGUUAGCAGCAUGGAGUAUAUUCCUGAAGGAGAGAUUUUGGUUAUUACUUAUGGACGAUCUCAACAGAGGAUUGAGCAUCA` gave a bound/input enrichment of 0.3 ratio.
The bound/input enrichment of `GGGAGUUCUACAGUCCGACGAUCAAGACAUACGGGGAGCCUGAGUCUGUGGGCAUGUCCAAGAGCUUCCGCCAGCCGGGGACCUCACUUGUAGAUGCUGAUACCUUCCAUCACCAGGUGCGUGAUGACAUUUUCUCUUCUUUACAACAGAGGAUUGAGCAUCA` is reported as 0.138 ratio.
`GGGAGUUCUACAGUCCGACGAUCGUGCCCUUCUCGCUGCUGCGGAGCCCGAGCUGGGAACCAUUCCGGGACUGGUACCCUGCACACAGCCGCCUCUUCGAUCAAGCUUUCGGGGUGCCCCGGUUGCCCGAUGAGUGGUCGCAGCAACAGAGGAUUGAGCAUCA` gave a bound/input enrichment of 0.0611 ratio.

Series 3
Target: PABPC1L2, full length, GST fusion (mouse, UniProt A0ABA7IW68)
Technique: RNAcompete
Form: RNA
Medium: in vitro
Concentration: 20 nM
Setting: 7-mer, probes averaged, single round
Reference: mean of 7-mers
Reading: higher = stronger binding
Residues (chain): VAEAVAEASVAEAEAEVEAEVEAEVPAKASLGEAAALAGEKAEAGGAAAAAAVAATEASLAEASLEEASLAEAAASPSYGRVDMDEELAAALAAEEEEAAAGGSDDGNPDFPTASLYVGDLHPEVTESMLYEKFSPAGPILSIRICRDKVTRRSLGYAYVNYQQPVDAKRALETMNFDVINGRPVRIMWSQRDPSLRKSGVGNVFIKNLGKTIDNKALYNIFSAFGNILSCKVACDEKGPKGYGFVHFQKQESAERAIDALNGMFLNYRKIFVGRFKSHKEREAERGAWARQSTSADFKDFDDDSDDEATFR
For `CUUCCGU`, the 7-mer Z-score was -0.476.
The 7-mer Z-score of `GGGAACC` is reported as 0.0388.
With `CAACAAU` the 7-mer Z-score was 0.191.
For `GGAGCCG`, the 7-mer Z-score was -0.162.
The 7-mer Z-score of `GGGACUA` is reported as 0.41.
With `ACCGUUG` the 7-mer Z-score was -0.179.
For `CUGACUA`, the 7-mer Z-score was 0.00436.
For `UUUGCAU`, the 7-mer Z-score was -0.282.
`AUAGCCC` has a 7-mer Z-score of 0.0787.
The 7-mer Z-score of `UGUCCAC` is reported as -0.335.
`GCCUUGU` has a 7-mer Z-score of -0.407.
`UCUAUAC` has a 7-mer Z-score of -0.3.
For `AUCACUU`, the 7-mer Z-score was -0.282.
For `AUCGUAA`, the 7-mer Z-score was -0.148.
`AACGGUA` gave a 7-mer Z-score of 0.287.
For `GGCAGUC`, the 7-mer Z-score was -0.0464.
With `CCGUAUA` the 7-mer Z-score was -0.139.
`UAGUCAA` gave a 7-mer Z-score of -0.188.
For `GAGUUAA`, the 7-mer Z-score was 0.017.

Series 4
Target: Histone acetyltransferase KAT6A, winged helix 1, GST fusion (KAT6A, Homo sapiens, UniProt Q92794, residues 1-85)
Technique: protein binding microarray
Form: double-stranded DNA, one strand shown
Medium: in vitro
Concentration: not given
Setting: 8-mer, flanks averaged, mean of 2 arrays, mostly near background
Reference: not given
Reading: higher = stronger binding
Construct (chain): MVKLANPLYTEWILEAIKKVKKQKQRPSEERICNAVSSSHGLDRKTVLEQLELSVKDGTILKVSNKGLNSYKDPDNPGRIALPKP
`ATCTGGGA` gave an E-score of -0.191.
`AAAGCCTA` has an E-score of -0.119.
With `GGAGGCAA` the E-score was -0.0326.
With `ACCATGAG` the E-score was -0.00477.
The E-score of `GGCATAAC` is reported as -0.0291.
For `TCAGAAGA`, the E-score was -0.118.
With `AAGCTGAA` the E-score was -0.111.
With `AGACGGGG` the E-score was 0.202.
The E-score of `ATTTCACA` is reported as -0.205.
`CGCCCAGC` has an E-score of 0.148.
`GGTTGTAA` gave an E-score of -0.173.
For `ACGTAGGC`, the E-score was -0.0473.
For `AATGGTAT`, the E-score was -0.106.
`AGTCAGAA` gave an E-score of -0.0915.
For `CGTACACC`, the E-score was 0.108.
The E-score of `ATGACAGA` is reported as -0.0884.
`GACTCGCA` has an E-score of 0.0244.
The E-score of `GGATTCTA` is reported as -0.188.
With `ACTATGGC` the E-score was -0.0494.
With `ATACAGAG` the E-score was -0.0788.
For `CGCACTTA`, the E-score was 0.127.
`ATGAGCAA` gave an E-score of -0.223.
The E-score of `GAGAAACC` is reported as -0.00921.
For `GTTCAAGA`, the E-score was -0.104.
`GGGGGGGA` gave an E-score of -0.042.

Some of these lines once more (series 4):
`ATCTGGGA` gave an E-score of -0.191.
`AAAGCCTA` has an E-score of -0.119.
With `GGAGGCAA` the E-score was -0.0326.
With `ACCATGAG` the E-score was -0.00477.
The E-score of `GGCATAAC` is reported as -0.0291.
For `TCAGAAGA`, the E-score was -0.118.
With `AAGCTGAA` the E-score was -0.111.
With `AGACGGGG` the E-score was 0.202.
The E-score of `ATTTCACA` is reported as -0.205.
